Measurements collected from several papers.
Lines come from different studies, so protocols differ.
Organism: Pseudomonas aeruginosa

SMILES	assay	system	setting	MIC
CC[C@H](C)[C@H](NC(=O)CNC(=O)[C@H](CCCNC(=N)N)NC(=O)[C@H](Cc1ccccc1)NC(=O)[C@@H](NC(=O)[C@H](Cc1c[nH]cn1)NC(=O)[C@H](Cc1c[nH]cn1)NC(=O)[C@H](Cc1ccccc1)NC(=O)[C@@H](N)Cc1ccccc1)[C@@H](C)CC)C(=O)N[C@H](C(=O)N[C@@H](Cc1c[nH]cn1)C(=O)N[C@H](C(=O)NCC(=O)N[C@@H](CCCCN)C(=O)N[C@H](C(=O)N[C@@H](CCCCN)C(=O)N[C@@H](Cc1c[nH]cn1)C(=O)N[C@@H](CCCNC(=N)N)C(=O)N[C@@H](CC(C)C)C(=O)N[C@H](C(=O)N[C@H](C(=O)NCC(N)=O)[C@@H](C)O)C(C)C)[C@@H](C)O)C(C)C)C(C)C	broth microdilution	ATCC 10662	18 h, 37 °C	25 µg/mL
CC(C)C[C@H](NC(=O)[C@H](CCCCN)NC(=O)[C@H](Cc1ccc(O)cc1)NC(=O)[C@@H](N)CS)C(=O)N[C@H](C(=O)N1CCC[C@H]1C(=O)N[C@H](C(=O)N[C@@H](CCC(=O)O)C(=O)N1CCC[C@H]1C(=O)N[C@@H](CC(=O)O)C(=O)N[C@@H](CCCCN)C(=O)N[C@H](C(=O)N[C@@H](CCC(=O)O)C(=O)N[C@@H](CCC(=O)O)C(=O)N[C@@H](C)C(=O)N[C@@H](CC(N)=O)C(=O)N[C@@H](CCCCN)C(=O)NCC(=O)N[C@@H](CCC(=O)O)C(=O)N[C@@H](CC(N)=O)C(=O)O)C(C)C)C(C)C)C(C)C	broth microdilution	PTCC 1074	overnight, 37 °C	20 µM
CC(C)(C)c1cccc(C(C)(C)C)c1Oc1ccc([N+](=O)[O-])cc1[N+](=O)[O-]		ATCC 29853		125 µg/mL
CC[C@H](C)CCCCC(=O)N[C@@H](CCN)C(=O)N[C@H](C(=O)N[C@@H](CCN)C(=O)N[C@H]1CCNC(=O)[C@H]([C@@H](C)O)NC(=O)[C@H](CCN)NC(=O)[C@H](CCN)NC(=O)[C@H](CC(C)C)NC(=O)[C@@H](CC(C)C)NC(=O)[C@H](CCN)NC1=O)[C@@H](C)O	broth microdilution	ATCC 27853	20 h, 37 °C	0.22 to 0.43 µM
CC(C)C[C@H](NC(=O)[C@H](CC(C)C)NC(=O)[C@H](CCCCN)NC(=O)[C@H](CC(C)C)NC(=O)[C@H](CC(C)C)NC(=O)[C@H](CCCCN)NC(=O)[C@H](CCCCN)NC(=O)[C@H](CC(C)C)NC(=O)[C@H](CC(C)C)NC(=O)[C@H](CCCCN)NC(=O)[C@H](CC(C)C)NC(=O)[C@H](CC(C)C)NC(=O)[C@@H](N)CCCCN)C(=O)N[C@@H](CCCCN)C(N)=O		ATCC 19606, CAMHB	18 h, 37 °C	> 19 µM
CC(C)C[C@H](N)C(=O)N[C@@H](CS)C(=O)N1CCC[C@H]1C(=O)N[C@@H](Cc1c[nH]cn1)C(=O)N[C@@H](CCCNC(=N)N)C(=O)N[C@@H](CS)C(=O)O	broth microdilution	MTCC 1688	37 °C	40 µg/mL
CC[C@H](C)[C@H](NC(=O)[C@H](C)NC(=O)[C@@H](NC(=O)[C@H](C)NC(=O)CNC(=O)[C@H](CCSC)NC(=O)[C@H](CCC(N)=O)NC(=O)[C@H](CC(C)C)NC(=O)[C@H](CO)NC(=O)[C@@H](N)Cc1ccc(O)cc1)[C@@H](C)O)C(=O)N[C@@H](CCCCN)C(=O)N[C@@H](CCC(N)=O)C(=O)N[C@H](C(=O)N[C@@H](CCCCN)C(=O)N[C@@H](CCCCN)C(=O)N[C@@H](CC(C)C)C(=O)N[C@@H](Cc1ccccc1)C(=O)N[C@@H](CCCCN)C(=O)N[C@@H](CCCCN)C(=O)N[C@@H](CCCCN)C(=O)NCC(=O)NCC(N)=O)C(C)C	broth microdilution	ATCC 9027	24 h, 37 °C	310 µM
CC[C@H](C)CCCCC(=O)N[C@@H](CCN)C(=O)N[C@H](C(=O)N[C@@H](CCN)C(=O)N[C@H]1CCNC(=O)[C@H]([C@@H](C)O)NC(=O)[C@H](CCN)NC(=O)[C@H](CCN)NC(=O)[C@H](CC(C)C)NC(=O)[C@@H](Cc2ccccc2)NC(=O)[C@H](CCN)NC1=O)[C@@H](C)O	broth microdilution	PA14, CAMHB	24 h, 37 °C	1 µg/mL
Cc1nc2ccccc2n(-c2ccc([N+](=O)[O-])cc2[N+](=O)[O-])c1=O		ATCC 29853		125 µg/mL
CC[C@H](C)[C@H](N)C(=O)N[C@@H](CC(C)C)C(=O)NCC(=O)N1CCC[C@H]1C(=O)N[C@H](C(=O)N[C@@H](CC(C)C)C(=O)NCC(=O)N[C@@H](CC(C)C)C(=O)N[C@H](C(=O)N[C@@H](CO)C(=O)N[C@@H](CC(=O)O)C(=O)N[C@H](C(=O)N[C@@H](CC(C)C)C(=O)N[C@@H](CC(=O)O)C(=O)N[C@@H](CC(=O)O)C(=O)N[C@H](C(=O)N[C@@H](CC(C)C)C(=O)NCC(=O)N[C@H](C(=O)N[C@@H](CC(C)C)C(=O)N[C@@H](CS)C(=O)O)[C@@H](C)CC)C(C)C)[C@@H](C)O)C(C)C)C(C)C		ATCC 27853	24 h, 37 °C	90 µM
CC(C)C[C@H](NC(=O)[C@H](C)NC(=O)[C@H](CCCCN)NC(=O)[C@H](CC(C)C)NC(=O)[C@H](CC(C)C)NC(=O)[C@H](CCCCN)NC(=O)[C@H](CCCCN)NC(=O)[C@H](CC(C)C)NC(=O)[C@H](CC(C)C)NC(=O)[C@H](CCCCN)NC(=O)[C@H](CC(C)C)NC(=O)[C@H](CC(C)C)NC(=O)[C@@H](N)CCCCN)C(=O)NCC(N)=O		ATCC 19606, CAMHB	18 h, 37 °C	> 20 µM

Repeated from above:
SMILES	assay	system	setting	MIC
CC(C)C[C@H](N)C(=O)N[C@@H](CS)C(=O)N1CCC[C@H]1C(=O)N[C@@H](Cc1c[nH]cn1)C(=O)N[C@@H](CCCNC(=N)N)C(=O)N[C@@H](CS)C(=O)O	broth microdilution	MTCC 1688	37 °C	40 µg/mL
CC[C@H](C)[C@H](NC(=O)[C@H](C)NC(=O)[C@@H](NC(=O)[C@H](C)NC(=O)CNC(=O)[C@H](CCSC)NC(=O)[C@H](CCC(N)=O)NC(=O)[C@H](CC(C)C)NC(=O)[C@H](CO)NC(=O)[C@@H](N)Cc1ccc(O)cc1)[C@@H](C)O)C(=O)N[C@@H](CCCCN)C(=O)N[C@@H](CCC(N)=O)C(=O)N[C@H](C(=O)N[C@@H](CCCCN)C(=O)N[C@@H](CCCCN)C(=O)N[C@@H](CC(C)C)C(=O)N[C@@H](Cc1ccccc1)C(=O)N[C@@H](CCCCN)C(=O)N[C@@H](CCCCN)C(=O)N[C@@H](CCCCN)C(=O)NCC(=O)NCC(N)=O)C(C)C	broth microdilution	ATCC 9027	24 h, 37 °C	310 µM
